Experimental data of several laboratories.
Each line is one published result; not all experiments were run side by side. Values joined by “and” are separate records of one study, mostly repeats; a detail may differ. ± gives the spread as reported.
Melanoma-associated antigen 4 MAGE homology domain: Melanoma-associated antigen 4, MAGE homology domain (Homo sapiens, UniProt P43358)
Sequence of UniProt P43358 (whole entry, looked up): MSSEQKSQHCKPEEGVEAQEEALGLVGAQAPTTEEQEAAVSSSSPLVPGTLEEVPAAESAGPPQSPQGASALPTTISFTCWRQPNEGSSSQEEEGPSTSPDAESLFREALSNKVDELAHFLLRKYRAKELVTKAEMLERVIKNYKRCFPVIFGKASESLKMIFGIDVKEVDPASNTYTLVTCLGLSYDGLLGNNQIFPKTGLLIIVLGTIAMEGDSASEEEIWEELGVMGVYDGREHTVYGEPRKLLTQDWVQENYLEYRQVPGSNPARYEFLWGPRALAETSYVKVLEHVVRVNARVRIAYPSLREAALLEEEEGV
PPARG: Peroxisome proliferator-activated receptor gamma (PPARG, Homo sapiens, UniProt P37231)
Sequence of UniProt P37231 (whole entry, looked up): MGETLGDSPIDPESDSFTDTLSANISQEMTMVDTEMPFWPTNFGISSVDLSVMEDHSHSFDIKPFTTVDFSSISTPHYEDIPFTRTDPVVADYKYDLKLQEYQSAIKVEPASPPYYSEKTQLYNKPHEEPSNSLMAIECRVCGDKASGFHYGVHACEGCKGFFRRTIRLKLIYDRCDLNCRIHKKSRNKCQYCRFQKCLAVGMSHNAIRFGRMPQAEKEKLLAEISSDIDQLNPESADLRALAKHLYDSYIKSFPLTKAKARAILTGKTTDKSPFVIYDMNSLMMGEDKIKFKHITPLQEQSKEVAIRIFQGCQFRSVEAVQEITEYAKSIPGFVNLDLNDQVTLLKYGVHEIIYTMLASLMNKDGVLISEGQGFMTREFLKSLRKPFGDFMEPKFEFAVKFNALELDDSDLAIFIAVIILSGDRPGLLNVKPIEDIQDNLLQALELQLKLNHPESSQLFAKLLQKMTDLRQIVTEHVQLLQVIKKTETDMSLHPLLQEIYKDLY
HDAC1: Histone deacetylase 1 (HDAC1, Homo sapiens, UniProt Q13547)
Sequence of UniProt Q13547 (whole entry, looked up): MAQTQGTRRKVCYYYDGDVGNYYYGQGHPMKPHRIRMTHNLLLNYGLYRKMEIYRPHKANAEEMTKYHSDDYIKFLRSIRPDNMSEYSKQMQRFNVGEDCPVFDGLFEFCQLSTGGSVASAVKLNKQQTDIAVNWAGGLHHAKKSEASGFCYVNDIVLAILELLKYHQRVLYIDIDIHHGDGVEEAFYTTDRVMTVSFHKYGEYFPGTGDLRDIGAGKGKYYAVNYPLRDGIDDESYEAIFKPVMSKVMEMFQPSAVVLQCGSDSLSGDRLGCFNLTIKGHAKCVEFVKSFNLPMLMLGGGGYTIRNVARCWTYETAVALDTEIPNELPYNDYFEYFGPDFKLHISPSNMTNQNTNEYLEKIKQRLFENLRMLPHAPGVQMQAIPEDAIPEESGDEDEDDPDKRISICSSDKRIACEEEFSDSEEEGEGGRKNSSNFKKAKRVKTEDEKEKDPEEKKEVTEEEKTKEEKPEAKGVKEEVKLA
Rhomboid protease AarA: Rhomboid protease AarA (Providencia stuartii, UniProt P46116)
Sequence of UniProt P46116 (whole entry, looked up): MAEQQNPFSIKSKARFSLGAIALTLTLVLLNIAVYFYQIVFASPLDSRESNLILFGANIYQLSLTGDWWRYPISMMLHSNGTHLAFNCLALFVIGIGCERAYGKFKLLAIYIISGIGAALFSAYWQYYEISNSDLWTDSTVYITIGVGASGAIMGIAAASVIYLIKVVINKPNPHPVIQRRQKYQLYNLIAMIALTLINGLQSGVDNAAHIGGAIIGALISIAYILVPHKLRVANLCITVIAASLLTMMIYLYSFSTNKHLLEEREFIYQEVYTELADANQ
PPARG ligand-binding domain: Peroxisome proliferator-activated receptor gamma, ligand-binding domain (PPARG, Homo sapiens, UniProt P37231)
Sequence of UniProt P21741 (whole entry, looked up): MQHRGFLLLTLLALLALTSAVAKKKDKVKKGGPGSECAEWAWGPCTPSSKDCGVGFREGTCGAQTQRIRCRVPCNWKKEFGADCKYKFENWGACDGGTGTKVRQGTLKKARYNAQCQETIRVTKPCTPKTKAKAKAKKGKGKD
Sequence of UniProt P51681 (whole entry, unmodified, looked up): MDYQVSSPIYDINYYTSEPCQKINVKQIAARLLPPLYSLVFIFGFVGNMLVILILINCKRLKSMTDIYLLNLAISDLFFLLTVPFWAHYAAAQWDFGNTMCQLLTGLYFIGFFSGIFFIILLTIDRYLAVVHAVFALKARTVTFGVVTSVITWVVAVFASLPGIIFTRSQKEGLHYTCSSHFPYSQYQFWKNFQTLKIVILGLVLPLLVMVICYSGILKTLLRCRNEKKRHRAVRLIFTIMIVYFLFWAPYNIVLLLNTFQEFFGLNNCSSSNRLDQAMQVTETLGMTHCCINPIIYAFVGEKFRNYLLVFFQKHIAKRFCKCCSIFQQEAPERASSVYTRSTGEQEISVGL
Sequence of UniProt P22309 (whole entry, looked up): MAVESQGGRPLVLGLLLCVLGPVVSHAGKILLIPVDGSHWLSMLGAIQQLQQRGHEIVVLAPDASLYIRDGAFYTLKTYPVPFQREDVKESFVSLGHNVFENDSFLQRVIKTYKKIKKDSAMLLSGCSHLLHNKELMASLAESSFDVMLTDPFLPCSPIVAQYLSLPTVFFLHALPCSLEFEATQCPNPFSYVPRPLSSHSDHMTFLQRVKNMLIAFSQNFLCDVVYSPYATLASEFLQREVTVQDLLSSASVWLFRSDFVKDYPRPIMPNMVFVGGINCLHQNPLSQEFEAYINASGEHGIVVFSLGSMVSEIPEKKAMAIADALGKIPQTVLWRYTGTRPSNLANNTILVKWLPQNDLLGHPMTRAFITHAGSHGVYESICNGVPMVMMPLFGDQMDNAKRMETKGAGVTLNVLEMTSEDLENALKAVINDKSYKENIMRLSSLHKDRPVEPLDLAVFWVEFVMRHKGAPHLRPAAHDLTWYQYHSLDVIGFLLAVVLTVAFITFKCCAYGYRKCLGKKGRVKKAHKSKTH
Sequence of UniProt P51692 (whole entry, looked up): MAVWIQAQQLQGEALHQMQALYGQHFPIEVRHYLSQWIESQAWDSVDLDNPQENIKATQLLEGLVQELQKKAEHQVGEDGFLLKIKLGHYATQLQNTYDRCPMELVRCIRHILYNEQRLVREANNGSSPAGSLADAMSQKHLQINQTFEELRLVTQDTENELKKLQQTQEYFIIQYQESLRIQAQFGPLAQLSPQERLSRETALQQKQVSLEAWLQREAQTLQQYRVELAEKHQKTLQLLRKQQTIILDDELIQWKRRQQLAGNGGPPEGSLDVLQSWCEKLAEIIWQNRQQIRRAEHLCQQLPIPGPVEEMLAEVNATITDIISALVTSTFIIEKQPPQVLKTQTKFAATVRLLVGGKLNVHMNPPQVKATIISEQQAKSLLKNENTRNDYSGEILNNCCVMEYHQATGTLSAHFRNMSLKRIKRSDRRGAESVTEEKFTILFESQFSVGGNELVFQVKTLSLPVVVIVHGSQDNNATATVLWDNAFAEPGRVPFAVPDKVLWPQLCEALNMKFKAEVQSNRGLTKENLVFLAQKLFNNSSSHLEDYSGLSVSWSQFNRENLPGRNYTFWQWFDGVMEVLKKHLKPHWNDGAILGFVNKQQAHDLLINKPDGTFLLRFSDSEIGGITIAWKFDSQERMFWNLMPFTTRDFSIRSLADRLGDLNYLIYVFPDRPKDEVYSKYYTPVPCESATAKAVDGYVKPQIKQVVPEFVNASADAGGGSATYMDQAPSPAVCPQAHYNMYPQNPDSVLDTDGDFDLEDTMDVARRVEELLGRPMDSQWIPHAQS
Sequence of UniProt Q9UHD2 (whole entry, looked up): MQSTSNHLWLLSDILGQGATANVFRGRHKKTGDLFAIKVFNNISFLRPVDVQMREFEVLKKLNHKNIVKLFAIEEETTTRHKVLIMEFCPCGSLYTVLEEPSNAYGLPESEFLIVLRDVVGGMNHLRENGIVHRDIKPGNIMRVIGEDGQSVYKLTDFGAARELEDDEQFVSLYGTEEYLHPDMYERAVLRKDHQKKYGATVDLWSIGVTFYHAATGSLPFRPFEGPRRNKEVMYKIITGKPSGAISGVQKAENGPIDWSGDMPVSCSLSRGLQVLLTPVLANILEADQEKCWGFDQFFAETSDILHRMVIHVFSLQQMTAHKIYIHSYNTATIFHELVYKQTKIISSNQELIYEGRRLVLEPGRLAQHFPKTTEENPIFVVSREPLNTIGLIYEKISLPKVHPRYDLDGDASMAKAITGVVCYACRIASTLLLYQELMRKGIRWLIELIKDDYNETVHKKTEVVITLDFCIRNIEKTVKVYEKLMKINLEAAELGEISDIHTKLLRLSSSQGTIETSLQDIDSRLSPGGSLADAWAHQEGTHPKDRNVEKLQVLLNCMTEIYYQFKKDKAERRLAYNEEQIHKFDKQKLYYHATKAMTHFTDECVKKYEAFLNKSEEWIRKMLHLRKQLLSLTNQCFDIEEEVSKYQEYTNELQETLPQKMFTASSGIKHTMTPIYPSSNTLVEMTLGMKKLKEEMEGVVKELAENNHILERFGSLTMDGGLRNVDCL
Sequence of UniProt Q07820 (whole entry, looked up): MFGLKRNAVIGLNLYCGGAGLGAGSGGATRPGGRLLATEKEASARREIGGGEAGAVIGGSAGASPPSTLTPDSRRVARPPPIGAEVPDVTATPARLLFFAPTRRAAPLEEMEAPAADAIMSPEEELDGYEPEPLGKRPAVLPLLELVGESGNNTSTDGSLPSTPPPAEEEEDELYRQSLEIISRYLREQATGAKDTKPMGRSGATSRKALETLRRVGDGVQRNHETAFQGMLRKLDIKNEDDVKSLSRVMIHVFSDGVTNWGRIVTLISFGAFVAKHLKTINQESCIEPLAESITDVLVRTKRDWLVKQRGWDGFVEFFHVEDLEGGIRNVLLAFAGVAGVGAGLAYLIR
Sequence of UniProt P07550 (whole entry, unmodified, looked up): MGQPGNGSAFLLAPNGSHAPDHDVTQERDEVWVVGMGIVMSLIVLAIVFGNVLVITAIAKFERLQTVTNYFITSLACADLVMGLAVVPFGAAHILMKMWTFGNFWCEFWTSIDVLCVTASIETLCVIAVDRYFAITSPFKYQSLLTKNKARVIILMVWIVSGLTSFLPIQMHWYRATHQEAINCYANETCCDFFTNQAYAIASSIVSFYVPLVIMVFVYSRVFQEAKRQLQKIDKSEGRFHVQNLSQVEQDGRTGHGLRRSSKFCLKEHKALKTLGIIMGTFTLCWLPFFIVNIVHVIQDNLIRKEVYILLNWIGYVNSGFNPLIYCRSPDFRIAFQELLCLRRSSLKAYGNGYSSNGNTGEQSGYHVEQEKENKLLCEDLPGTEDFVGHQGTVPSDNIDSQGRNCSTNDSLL

Structure (SMILES)	target	test	test system	setting	IC50
CC[C@H](C)[C@@H]1NC(=O)[C@H](Cc2ccc(O)cc2)NC(=O)CCSCc2cccc(c2)CSCCNC(=O)[C@H](Cc2c[nH]cn2)NC(=O)[C@H](Cc2ccc(O)cc2)NC(=O)[C@H](CC(=O)O)NC(=O)[C@H](Cc2ccc(F)c(F)c2)NC(=O)[C@H](CC(C)C)NC(=O)[C@H](CCCNC(=N)N)NC1=O	Melanoma-associated antigen 4 MAGE homology domain	binding, inhibitor, TR-FRET displacement	–	added: Alexa647-MTP-1	93.2 ± 1.5 nM
Cc1c(Cc2cccc(OC(C)(C)C(=O)O)c2)c2ccc(C(=O)N[C@@H](C)c3cccc(C(C)C)c3)cc2n1C	PPARG	ligand displacement, TR-FRET	–	–	1 nM
COC(=O)CCCNC(=O)c1ccc(Nc2ncc(F)c(-c3cc(F)c4nc(C)n(C(C)C)c4c3)n2)cc1	HDAC1	enzyme activity, inhibitor	–	–	> 1000 nM
O=C(Nc1cccc(Cl)c1)C(C(F)(F)F)C(F)(F)F	Rhomboid protease AarA	enzyme activity, inhibitor, fluorescence	–	–	10000 nM
Cc1nc2cc(C(=O)N[C@@H](C)c3cccc(C(C)(C)C)c3)ccc2n1Cc1cccc(OC(C)(C)C(=O)O)c1	PPARG ligand-binding domain	reporter gene, luciferase reporter	HEK293T, Gal4-PPARγ LBD	–	31400 nM
O=C1CC(c2cccc(Br)c2)N1S(=O)(=O)c1cccc(Cl)c1 (stereo not drawn)	Rhomboid protease AarA	enzyme activity, inhibitor, fluorescence	–	–	7000 nM
Cc1nn(-c2cccc(N)c2)c(=O)c2cnc(Nc3ccc(N4CCNCC4)cc3)nc12	Serine/threonine-protein kinase TBK1 (TBK1, Homo sapiens, UniProt Q9UHD2)	enzyme activity, inhibitor	–	–	> 10000 nM
CC(C)Oc1cc(C(=O)NCC(=O)O)ccc1NC(=O)[C@H](Cc1ccccc1)NC(=O)c1ccc(N)cc1OCc1ccccc1	Induced myeloid leukemia cell differentiation protein Mcl-1 (MCL1, Homo sapiens, UniProt Q07820)	fluorescence anisotropy competition	–	pH 7.50, added: FITC-NOXA B tracer	> 100000 nM
O=C(NCc1cccc(Cl)c1)C(C(F)(F)F)C(F)(F)F	Rhomboid protease AarA	enzyme activity, inhibitor, fluorescence	–	–	5400 nM
COc1cc(OC)c2c(=O)cc(-c3cc(C)c(OCCCN4CCN(C)CC4)c(C)c3)oc2c1	CREB-binding protein (CREBBP, Homo sapiens, UniProt Q92793)	cell-free assay, TR-FRET	–	–	> 10000 nM
CCCCCCCCC(=O)Nc1ccc(Nc2ncc(F)c(-c3cc(F)c4nc(C)n(C(C)C)c4c3)n2)cc1	HDAC1	enzyme activity, inhibitor	–	–	> 1000 nM
CCOc1cc(CN2CCC3(CC2)CN(c2ccc(C(=O)O)cc2)C(=O)N3)c(C2CC2)cc1C	Somatostatin receptor type 5 (SSTR5, Homo sapiens, UniProt P35346, Q123A)	cAMP level, antagonist, GloSensor	AD293	Q123A mutant, bandwidth 3.36, added: CST17 EC80 and forskolin	14.1 nM
Cc1ccc(C(=O)Nc2ccnc(S(N)(=O)=O)c2)c(N2CCCC(F)(F)CC2)n1	Sodium channel protein type 1 subunit alpha (SCN1A, Homo sapiens, UniProt P35498)	ion current	–	–	> 33800 nM
O=C(Nc1ccccc1OC1CCCC1)C(C(F)(F)F)C(F)(F)F	Rhomboid protease AarA	enzyme activity, inhibitor, fluorescence	–	–	1800 nM
CC(=O)N(C)CCN1CCN(c2cnc3c(cc(C(=O)NCc4ccc(Cl)cc4)c(=O)n3CC(=O)N3CC(C)(F)C3)n2)C1=O	Voltage-gated inwardly rectifying potassium channel KCNH2 (KCNH2, Homo sapiens, UniProt Q12809)	ion current, inhibitor, patch clamp	–	–	13100 nM
Cc1c(Cc2cccc(OC(C)(C)C(=O)O)c2)c2ccc(C(=O)N[C@@H](C)c3ccc(C(C)C)cc3)cc2n1C	PPARG ligand-binding domain	reporter gene, luciferase reporter	HEK293T, Gal4-PPARγ LBD	–	850 nM
COc1ccc(O[C@@H]2O[C@H](COS(=O)(=O)O)[C@H](OS(=O)(=O)O)[C@H](O[C@@H]3O[C@H](C(=O)OCc4ccccc4)[C@@H](O[C@@H]4O[C@H](COS(=O)(=O)O)[C@H](OS(=O)(=O)O)[C@H](O[C@@H]5O[C@H](C(=O)OCc6ccccc6)[C@@H](OS(=O)(=O)O)[C@H](OCc6ccccc6)[C@H]5OC(=O)c5ccccc5)[C@H]4NC(=O)C(F)(F)F)[C@H](OCc4ccccc4)[C@H]3OC(=O)c3ccccc3)[C@H]2NC(=O)C(F)(F)F)cc1	Midkine (Homo sapiens, UniProt P21741)	heparin hexasaccharide binding, fluorescence polarisation competition	–	added: fluorescein-labelled hexasaccharide probe	3400 nM and 4600 nM and 3500 nM

Structure (SMILES)	target	test	test system	setting	IC50
CCCSc1nc(Sc2nnc(N)s2)c2nnn(CCO)c2n1	Lysine-specific histone demethylase 1A (KDM1A, Homo sapiens, UniProt O60341)	enzyme activity, inhibitor, fluorescence	–	–	2100 nM
Cc1cccc(NC(=O)C(C(F)(F)F)C(F)(F)F)c1	Rhomboid protease AarA	enzyme activity, inhibitor, fluorogenic peptide	–	–	18000 nM
COc1c(Cl)cccc1Nc1c(-c2ccncc2OC[C@@H]2COCCO2)[nH]c2c1C(=O)NCC2	Receptor tyrosine-protein kinase erbB-4 (ERBB4, Homo sapiens, UniProt Q15303)	kinase activity, inhibitor, TR-FRET	–	added: ATP 2 mM	14 nM
CC(=O)OC1CCC2(C)C(CCC3(C)C2CC=C2C4C(C)C(C)CCC4(C(=O)O)CCC23C)C1(C)C (stereo not drawn)	UDP-glucuronosyltransferase 1A1 (UGT1A1, Homo sapiens, UniProt P22309)	enzyme activity, inhibitor	–	–	> 100000 nM
O=C(NCc1ccccc1)c1ccccc1NC(=O)C(C(F)(F)F)C(F)(F)F	Rhomboid protease AarA	enzyme activity, inhibitor, fluorescence	–	–	4700 nM
Cc1c(Cc2cccc(O[C@H](C)C(=O)O)c2Cl)c2ccc(C(=O)N[C@@H](C)c3ccc(C(C)(C)C)cc3)cc2n1C	PPARG ligand-binding domain	reporter gene, luciferase reporter	HEK293T, Gal4-PPARγ LBD	–	4210 nM
CC1C(=O)N(S(=O)(=O)c2ccccc2)C1c1ccccc1 (stereo not drawn)	Rhomboid protease AarA	enzyme activity, inhibitor, fluorescence	–	–	224000 nM
Cc1nnc(-c2ccc(CC(=O)NCCOCCOCC(=O)NC(CCN3C4CCC3CC(n3c(C)nnc3C(C)C)C4)c3ccccc3)cc2)nn1 (stereo not drawn)	C-C chemokine receptor type 5 (CCR5, Homo sapiens, UniProt P51681, Y184K)	calcium mobilization, antagonist	HEK293T cells expressing CCR5	added: PSC-RANTES	23.6 nM
Cc1c(Cc2cccc(OC(C(=O)O)C(F)(F)F)c2)c2ccc(C(=O)N[C@@H](C)c3cccc(C(C)(C)C)c3)cc2n1C (stereo partly drawn)	PPARG	ligand displacement, TR-FRET	–	–	158 nM
CC[C@H](C)[C@@H]1NC(=O)[C@H](Cc2ccc(O)cc2)NC(=O)CCSCc2cccc(c2)CSCCNC(=O)[C@H](C)NC(=O)[C@H](Cc2ccc(O)cc2)NC(=O)[C@H](CC(=O)O)NC(=O)[C@H](Cc2ccc(O)cc2)NC(=O)[C@H](CC(C)C)NC(=O)[C@H](CCCNC(=N)N)NC1=O	Melanoma-associated antigen 4 MAGE homology domain	binding, inhibitor, TR-FRET displacement	–	added: Alexa647-MTP-1	54.7 ± 15 nM
Cc1c(Cc2cccc(OCC(=O)O)c2)c2ccc(C(=O)N[C@@H](C)c3cccc(C(C)(C)C)c3)cc2n1C	PPARG	ligand displacement, TR-FRET	–	–	187 nM
O=C(COc1cccc2ccccc12)NCc1ccc(OP(=O)(O)O)c(OP(=O)(O)O)c1	Signal transducer and activator of transcription 5B, SH2 (STAT5B, Homo sapiens, UniProt P51692)	ligand displacement, FP	–	–	550 nM
Cc1c(Cc2cccc(OC(C)(C)C(=O)O)c2)c2ccc(C(=O)N[C@@H](C)c3cccc(C(C)(C)C)c3)cc2n1C(C)C	PPARG	ligand displacement, TR-FRET	–	–	3 nM
Fc1ccc(Nc2nc(NC3CCCCC3)c3cc(Br)ccc3n2)cc1F	Beta-2 adrenergic receptor (ADRB2, Homo sapiens, UniProt P07550, I153L)	β-arrestin2 recruitment, antagonist, BRET	HEK293	mutant I153L, added: isoprenaline 1 µM	251 nM
COC(=O)CCCNC(=O)Cc1ccc(Nc2ncc(F)c(-c3cc(F)c4nc(C)n(C(C)C)c4c3)n2)cc1	HDAC1	enzyme activity, inhibitor	–	–	> 1000 nM
Cc1c(Cc2ccc(OC(C)(C)C(=O)O)cc2)c2ccc(C(=O)N[C@@H](C)c3cccc(C4CC4)c3)cc2n1C	PPARG	ligand displacement, TR-FRET	–	–	3 nM
